{"data": "Experimental data of several laboratories", "note": "Numbered parts are unrelated; each lists some results of a single study. Changes are numbered by the printed parent chain."}
{"data": "Series 1", "target": "CRIPT, C-terminal peptide", "technique": "DHFR complementation, deep sequencing", "sample": "yeast", "notes": "single substitutions, model-inferred values", "reference": "wild type", "reading": "higher = weaker binding", "starting sequence": "ERBIN, PDZ domain 1 (human); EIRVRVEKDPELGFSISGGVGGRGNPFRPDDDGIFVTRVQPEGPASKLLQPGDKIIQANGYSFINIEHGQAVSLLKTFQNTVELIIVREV; partner TKNYKQTSV"}
{"Substitution": "V72C", "binding free energy change": "0.842 kcal/mol"}
{"Substitution": "I86S", "binding free energy change": "0.482 kcal/mol"}
{"Substitution": "V82H", "binding free energy change": "1.35 kcal/mol"}
{"Substitution": "I2M", "binding free energy change": "-0.024 kcal/mol"}
{"Substitution": "T81N", "binding free energy change": "0.194 kcal/mol"}
{"Substitution": "G43A", "binding free energy change": "0.567 kcal/mol"}
{"Substitution": "I86F", "binding free energy change": "0.0671 kcal/mol"}
{"Substitution": "N80F", "binding free energy change": "0.149 kcal/mol"}
{"data": "Series 2", "target": "Hepatocyte nuclear factor 3-beta, forkhead domain (FOXA2, Homo sapiens, UniProt Q9Y261, residues 142-269)", "technique": "protein-binding microarray", "form": "double-stranded DNA, one strand shown", "sample": "in vitro", "tested at": "not given", "notes": "k-mer, scored over probes, only values ≥0.25", "reading": "higher = stronger binding", "Construct (chain)": "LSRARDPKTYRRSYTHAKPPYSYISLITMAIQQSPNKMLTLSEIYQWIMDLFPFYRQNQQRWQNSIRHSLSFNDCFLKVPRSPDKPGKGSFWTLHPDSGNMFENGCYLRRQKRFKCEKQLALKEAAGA"}
{"Strand": "ACCTAATA", "E-score": 0.283}
{"Strand": "ATATAGTC", "E-score": 0.322}
{"Strand": "ATTCCATA", "E-score": 0.28}
{"Strand": "TATATTAA", "E-score": 0.265}
{"Strand": "AATAAATA", "E-score": 0.353}
{"Strand": "ACAAACAT", "E-score": 0.342}
{"Strand": "TACCACGA", "E-score": 0.28}
{"Strand": "ATGGTAAT", "E-score": 0.271}
{"data": "Series 3", "target": "RING finger protein unkempt homolog, zinc fingers 1-6, GST-SBP tag (UNK, Homo sapiens, UniProt Q9C0B0, residues 30-357)", "technique": "RNA Bind-n-Seq", "form": "RNA", "sample": "in vitro", "tested at": "not given", "notes": "RNA with constant flanks, human and mouse sites, ends assumed", "reference": "input RNA pool", "reading": "higher = stronger binding", "Target sequence (chain)": "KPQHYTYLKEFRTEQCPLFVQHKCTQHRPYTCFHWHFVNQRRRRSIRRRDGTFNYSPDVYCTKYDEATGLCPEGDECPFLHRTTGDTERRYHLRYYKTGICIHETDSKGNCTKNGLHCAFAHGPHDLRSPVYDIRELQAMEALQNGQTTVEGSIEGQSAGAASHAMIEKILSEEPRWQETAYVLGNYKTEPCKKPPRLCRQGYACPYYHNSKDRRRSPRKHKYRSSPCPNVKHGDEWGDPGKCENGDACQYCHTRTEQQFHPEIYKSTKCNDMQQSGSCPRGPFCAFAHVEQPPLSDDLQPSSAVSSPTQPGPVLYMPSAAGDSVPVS"}
{"Strand": "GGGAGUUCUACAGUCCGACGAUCCUUGAAUGGCUUAGGGCUCAACCAGACUGUUGAUCUCCUCAUGCAAGAGUCAGGAUGUCGUUUAGAACAUCCUUCUGCUACCAAAUUCCGAAAUCAUGUCAUGGAAGGAGACUGGGAUAACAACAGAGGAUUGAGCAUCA", "bound/input enrichment": "0.0971 ratio"}
{"Strand": "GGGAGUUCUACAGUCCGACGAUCACUGAAACAGUACCAGCAAGUCAUGAGAUUUUUUAGUAAAGAUGAGAAAGAUGGUUGAAGAAAAUUAGUGCAUAAUUUCUCAGUGAAUAAAGUUGUAGCUCUCAUAUACUAAAUAGACAACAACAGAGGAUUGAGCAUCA", "bound/input enrichment": "3.3 ratio"}
{"Strand": "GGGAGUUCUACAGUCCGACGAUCAAUAUUAAAAAGUCUUCAGGGGCUCCACCUUCAAUGCACAGGGAGGACACCGGUCAGCAUCGGGGAGUCAGCUGCUCUUACGUUUUCAGUGCUGUGUAUCUGAGCCUUGAACGAGUCUCACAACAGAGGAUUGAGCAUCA", "bound/input enrichment": "0.201 ratio"}
{"Strand": "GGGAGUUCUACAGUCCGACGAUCUUAACGCUUUCUAAGUGAAUGCAGCAUGUGAUGGUAUUUUAAAGUGUGUUCCCAUGUGACAAUUUUAUAAAAGUUUGUUACCUUGCAAUUUUAUUUCAAAACAUAAAUUCAGAUUUAAAACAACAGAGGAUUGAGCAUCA", "bound/input enrichment": "0.187 ratio"}
{"Strand": "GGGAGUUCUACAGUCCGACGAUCUUUGCAAAUUAUAUUGCCAGAGACACACGUCGUCUUGGUGCAACAAUACUAGACCGUAUACAUAGUCUUCAAAUUAAUAGCAGUUUGAGCACCUACUCUCUCGUAGACUCUGUUGGAAAUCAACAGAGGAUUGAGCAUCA", "bound/input enrichment": "8.56 ratio"}
{"Strand": "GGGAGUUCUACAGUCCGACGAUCCCGCGCGGCCGGCCGGCCGACUAGGGUUUGAAGACUGCUUCAUUCUGCCUCUAGUACCAGCGGUUUCUCUGUUCUGUGAUCAAUGUGAUUCACAGGAACUCCUUAAGUAACAAACGAAAUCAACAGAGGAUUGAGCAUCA", "bound/input enrichment": "0.457 ratio"}
{"Strand": "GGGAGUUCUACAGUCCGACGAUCCACAGGGCAAUGGGGAGCUUGCAGCAAGCCCUUGUGUGCUUUGAAAAGAGGCUCGUGGUUGCUCAUGAACUUGGAGAGGCCUUCAAUAAAGCCCAGGCCUAUGGAGAGCUGGGAAGUCUGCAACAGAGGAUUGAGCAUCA", "bound/input enrichment": "0.139 ratio"}
{"Strand": "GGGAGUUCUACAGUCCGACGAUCAGCCGCCCCUUUGCCAAGGUCACUGUCUGCUUCCCUCCAGACCCUGCAGGCCCAGCACCUGCAUGGAAGCCAGCUGGGCUCCCUCCUCCUGCCUUCCGCCGCUCUGAGCCUUUCCUAGCACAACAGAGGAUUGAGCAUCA", "bound/input enrichment": "0.297 ratio"}
{"data": "Mixed results", "starting sequence": "PafA, mature enzyme, eGFP fusion (Elizabethkingia meningoseptica, UniProt Q9KJX5); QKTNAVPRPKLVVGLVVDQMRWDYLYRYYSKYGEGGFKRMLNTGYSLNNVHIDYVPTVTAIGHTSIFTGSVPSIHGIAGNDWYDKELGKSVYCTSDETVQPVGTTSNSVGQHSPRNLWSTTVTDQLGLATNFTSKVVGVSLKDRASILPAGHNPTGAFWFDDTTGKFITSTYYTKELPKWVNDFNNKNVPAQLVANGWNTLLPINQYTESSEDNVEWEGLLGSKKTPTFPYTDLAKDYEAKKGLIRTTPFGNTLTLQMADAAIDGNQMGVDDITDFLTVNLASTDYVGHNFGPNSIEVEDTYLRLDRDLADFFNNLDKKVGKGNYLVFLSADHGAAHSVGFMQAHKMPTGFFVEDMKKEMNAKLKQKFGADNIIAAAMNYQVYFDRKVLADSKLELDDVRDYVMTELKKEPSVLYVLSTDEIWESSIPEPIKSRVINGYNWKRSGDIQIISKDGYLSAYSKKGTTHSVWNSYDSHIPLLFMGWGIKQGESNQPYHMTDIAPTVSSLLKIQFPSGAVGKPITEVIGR"}
{"Substitution": "L407V", "target": "tungstate, free oxyanion", "test": "microfluidic competitive inhibition", "system": "in vitro, cell-free expressed", "setting": "not given, derived from inhibition constants, unchanged parent 2230 nM", "how to read": "lower = stronger binding", "endpoint": "oxyanion analog dissociation constant", "result": "2280 nM"}
{"note": "A few entries again (series 1):"}
{"Substitution": "I86S", "binding free energy change": "0.482 kcal/mol"}
{"Substitution": "V72C", "binding free energy change": "0.842 kcal/mol"}
